Experimental data from different studies.
Lines come from different studies, so protocols differ. Values joined by “and” are separate records of one study, mostly repeats; a detail may differ. Numbers after ± are the reported error.
Sequence of UniProt Q64663 (whole entry, unmodified, looked up): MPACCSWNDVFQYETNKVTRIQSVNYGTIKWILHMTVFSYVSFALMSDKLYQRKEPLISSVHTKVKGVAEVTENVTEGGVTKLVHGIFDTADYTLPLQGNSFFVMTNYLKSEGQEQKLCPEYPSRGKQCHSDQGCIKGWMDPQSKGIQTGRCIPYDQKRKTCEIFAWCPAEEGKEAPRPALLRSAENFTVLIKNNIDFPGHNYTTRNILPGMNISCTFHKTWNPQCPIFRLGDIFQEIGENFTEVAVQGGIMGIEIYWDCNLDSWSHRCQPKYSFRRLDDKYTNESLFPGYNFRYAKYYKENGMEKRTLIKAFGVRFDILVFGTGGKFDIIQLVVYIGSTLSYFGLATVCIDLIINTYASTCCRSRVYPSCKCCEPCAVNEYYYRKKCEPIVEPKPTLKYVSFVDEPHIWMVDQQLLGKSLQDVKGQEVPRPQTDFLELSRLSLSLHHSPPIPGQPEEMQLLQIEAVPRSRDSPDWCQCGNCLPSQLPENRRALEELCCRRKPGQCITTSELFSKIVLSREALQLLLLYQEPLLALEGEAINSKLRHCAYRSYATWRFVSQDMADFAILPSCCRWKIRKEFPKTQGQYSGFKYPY
Sequence of UniProt P48067 (whole entry, looked up): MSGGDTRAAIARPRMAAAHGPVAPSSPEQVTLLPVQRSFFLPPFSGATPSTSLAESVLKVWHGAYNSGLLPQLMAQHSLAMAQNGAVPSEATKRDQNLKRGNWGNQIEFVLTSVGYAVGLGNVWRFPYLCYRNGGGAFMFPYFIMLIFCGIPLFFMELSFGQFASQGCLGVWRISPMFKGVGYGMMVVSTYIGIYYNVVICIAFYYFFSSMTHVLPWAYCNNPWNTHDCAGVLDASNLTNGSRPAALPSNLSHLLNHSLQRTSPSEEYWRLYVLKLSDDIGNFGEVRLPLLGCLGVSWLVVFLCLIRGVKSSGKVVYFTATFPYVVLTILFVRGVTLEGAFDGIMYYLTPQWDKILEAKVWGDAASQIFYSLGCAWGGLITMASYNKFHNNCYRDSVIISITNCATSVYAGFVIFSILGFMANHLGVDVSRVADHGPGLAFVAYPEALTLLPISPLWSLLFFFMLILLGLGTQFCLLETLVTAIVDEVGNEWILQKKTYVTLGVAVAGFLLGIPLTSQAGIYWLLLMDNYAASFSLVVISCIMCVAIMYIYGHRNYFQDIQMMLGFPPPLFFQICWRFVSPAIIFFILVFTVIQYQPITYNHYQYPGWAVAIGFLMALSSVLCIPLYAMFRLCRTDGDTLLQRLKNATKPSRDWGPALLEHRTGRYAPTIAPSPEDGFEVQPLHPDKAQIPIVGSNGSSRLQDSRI

Molecule | target or system | assay | system | conditions | how to read | endpoint | value
FKBP12 |  | co-immunoprecipitation | human RBC cytosol | unit not given, added: Band 3 peptide 1-56 bait | reference: negative control | co-IP enrichment | 0
ACDDQNPWRAYLDLLFPTDTLLLDLLW |  | ex vivo fluorescence imaging | peptide, BALB/c mice, 4T1 tumour-bearing, muscle | intravenous, 5 nmol, 4 h post-injection | higher = more uptake | mean fluorescence intensity | 1120 ± 167 a.u.
GSGAGHETIV | human MAGI1-2/6 PDZ construct (MBP fusion) | automated holdup | peptide, purified PDZ protein | concentration not given, unit not given | reference: biotin control resin, higher = stronger binding | binding intensity | 0.173
human serum albumin |  | co-immunoprecipitation | human RBC cytosol | DSSO crosslinker, unit not given, added: Band 3 peptide 1-56 bait | reference: negative control | co-IP enrichment | 127
BzATP | P2X purinoceptor 7 (P2rx7, Rattus norvegicus, UniProt Q64663, R125A) | ion current, agonist, two-electrode voltage clamp | Xenopus oocytes | 100 µM |  | normalized current | 0.974 and 1
epoetin alfa | UT7/EPO | microarray, refers to: PHLDA1 (probe 217997_at) |  | 5 U/mL, 90 min, added: SCF 10 nM | reference: vehicle | mRNA level | 10.1 fold
TASPAKETSF | human MAGI1-3/6 PDZ construct (MBP fusion) | automated holdup | peptide, crude extract | concentration not given, corrected by standard peak, unit not given | reference: biotin control resin, higher = stronger binding | binding intensity | -0.0432
SLLMWVCQV | Jurkat T cells expressing 1G4 TCR | NFAT-eGFP reporter, flow cytometry | peptide | concentration not given, HLA-A*02:01 NY-ESO system |  | reporter activation | 1.93%
tripeptidyl peptidase 2 |  | co-immunoprecipitation | human RBC membrane | unit not given, added: Band 3 peptide 1-56 bait | reference: negative control | co-IP enrichment | 0
methyl-β-cyclodextrin | Sodium- and chloride-dependent glycine transporter 1 (SLC6A9, Homo sapiens, UniProt P48067) | transport activity, [3H]glycine uptake |  | 3.5 mg/mL, 1 min, added: glycine 150 µM | higher = more transport | glycine uptake rate | 20.8 a.u. and 39 a.u. and 38.2 a.u. and 20.6 a.u.
SVWLRKETRV | human SCRIB PDZ3-4 tandem (MBP fusion) | automated holdup | peptide, crude extract | concentration not given, uncorrected, unit not given | reference: biotin control resin, higher = stronger binding | binding intensity | 0.711
Teicoplanin |  |  | QC solution | 13 months, -40 °C, low QC level |  | recovery | 93%
colistin | Escherichia coli | broth microdilution | clinical isolate RKI-No_75/15 |  |  | MIC | ≤ 0.5 µg/mL
human alpha-enolase |  | co-immunoprecipitation | human plasma | unit not given, added: Band 3 peptide 1-56 bait | reference: negative control | co-IP enrichment | 0.889
ALLEWVNQC | Jurkat T cells expressing 1G4 TCR | NFAT-eGFP reporter, flow cytometry | peptide | concentration not given, HLA-A*02:01 NY-ESO system |  | reporter activation | 0.17%
Peginesatide | UT7/EPO | tyrosine phosphorylation, LC-MS/MS phosphoproteomics, trypsin, refers to: ADD2 tyrosine 440 |  | 10 nM, 15 min, added: 10 U/mL EPO | reference: vehicle | phosphorylation level | 8.3 fold
KPGKGSETVV | human MAGI1-2/6 PDZ construct (MBP fusion) | automated holdup | peptide, crude extract | concentration not given, corrected by standard peak, unit not given | reference: biotin control resin, higher = stronger binding | binding intensity | 0.58
human complement C3 |  | co-immunoprecipitation | human RBC membrane | no crosslinker, unit not given, added: Band 3 peptide 1-56 bait | reference: negative control | co-IP enrichment | 0
GSGAGKETSF | human MAGI1-2/6 PDZ construct (MBP fusion) | automated holdup | peptide, crude extract | concentration not given, corrected by standard peak, unit not given | reference: biotin control resin, higher = stronger binding | binding intensity | 0.0611
WLGQWIARL | Jurkat T cells expressing 1G4 TCR | NFAT-eGFP reporter, fluorescence microscopy | peptide | concentration not given, HLA-A*02:01 NY-ESO system |  | reporter activation | 0.0128%

Molecule | target or system | assay | system | conditions | how to read | endpoint | value
DNA 1 CACTGGCCGTCTTACGGTCGCTCTGCTCGACG / DNA 2 CGACCGTAAGACGGCCAGTG (dsDNA; 20 bp, 3' 12 nt overhang) | RECQL 63-592 Y564A (Bos taurus, UniProt A0JN36) | fluorescence anisotropy | double-stranded DNA | added: Mg2+ 3 mM |  | Kd | 0.0608 ± 0.0236 µM
GLAQWISGA | Jurkat T cells expressing 1G4 TCR | NFAT-eGFP reporter, fluorescence microscopy | peptide | concentration not given, HLA-A*02:01 NY-ESO system |  | reporter activation | 0.0086%
MTVCNASQRQAHAQATAVSL | Calu-3 | phage binding | peptide |  | reference: targeting over control phage | selectivity ratio | 1.6 ± 1.1
hemoglobin beta |  | co-immunoprecipitation | human RBC membrane | DMTMM crosslinker, unit not given, added: Band 3 peptide 1-56 bait | reference: negative control | co-IP enrichment | 365
FNA / CGLSGLGVA-NH2 ([18F]FNA-labelled, C-amide) |  | gamma counting | peptide, healthy mice, skull bone | 60 min |  | tissue uptake | 0.43 %ID/g
VMRLQSETSV | human MAGI1-3/6 PDZ construct (MBP fusion) | surface plasmon resonance | peptide | concentration not given | higher = stronger binding | normalised SPR binding response | 0 normalised RU
11-deoxycorticosterone | human CYP11B2 | stopped-flow kinetic modelling |  | 4-state closed model, added: equimolar adrenodoxin |  | Kd | 7.41 µM
triosephosphate isomerase |  | co-immunoprecipitation | human RBC cytosol | DMTMM crosslinker, unit not given, added: Band 3 peptide 1-56 bait | reference: negative control | co-IP enrichment | 336
caspofungin |  |  | adult ICU patients, mITT, serum | dose not given, day 4 |  | potassium | 4 mmol/L
ALTQWVTEN | Jurkat T cells expressing 1G4 TCR | NFAT-eGFP reporter, flow cytometry | peptide | concentration not given, HLA-A*02:01 NY-ESO system |  | reporter activation | 0.14%
adenosylhomocysteinase |  | co-immunoprecipitation | human plasma | unit not given, added: Band 3 peptide 1-56 bait | reference: negative control | co-IP enrichment | 0
ALFQWISGA | Jurkat T cells expressing 1G4 TCR | NFAT-eGFP reporter, flow cytometry | peptide | concentration not given, HLA-A*02:01 NY-ESO system |  | reporter activation | 0.095%
MQLMPFGCLL | HLA class I histocompatibility antigen, A alpha chain, allele A*02:01 (Homo sapiens, UniProt P04439) | complex stability, off-rate | peptide | 37 °C |  | half-life of peptide-HLA complex | 1.2 h
insulin degludec |  |  | human | subcutaneous, 0.4 IU/kg, 3 FC level, single dose, reference formulation |  | apparent clearance CL/F | 1.56 ± 1.33 L/h
ACEQNPIYWARYADWLFTTPLLLLDLALLVDADEGT |  | ex vivo fluorescence imaging | peptide, BALB/c mice, 4T1 tumour-bearing, 4T1 tumour | intravenous, 5 nmol, 24 h post-injection | higher = more uptake | mean fluorescence intensity | 1290 ± 290 a.u.
GSGAGSETSV | human MAGI1-3/6 PDZ construct (MBP fusion) | automated holdup | peptide, crude extract | concentration not given, corrected by standard peak, unit not given | reference: biotin control resin, higher = stronger binding | binding intensity | 0.213
ALMQWVTQV | Jurkat T cells expressing 1G4 TCR | NFAT-eGFP reporter, fluorescence microscopy | peptide | concentration not given, HLA-A*02:01 NY-ESO system |  | reporter activation | 24.1%
QSARYRDTEL | human SCRIB PDZ3-4 tandem (MBP fusion) | automated holdup | peptide, crude extract | concentration not given, uncorrected, unit not given | reference: biotin control resin, higher = stronger binding | binding intensity | 0.68
ALLTWVTQV | Jurkat T cells expressing 1G4 TCR | NFAT-eGFP reporter, flow cytometry | peptide | concentration not given, HLA-A*02:01 NY-ESO system |  | reporter activation | 69%
cotadutide |  | metabolomics, refers to: hepatic leucine | ob/ob mice on AMLN diet, NASH model, liver | dose not given |  | metabolite level | 1.04 ± 0.02 scaled intensity

Repeated from above:
Molecule | target or system | assay | system | conditions | how to read | endpoint | value
insulin degludec |  |  | human | subcutaneous, 0.4 IU/kg, 3 FC level, single dose, reference formulation |  | apparent clearance CL/F | 1.56 ± 1.33 L/h
KPGKGSETVV | human MAGI1-2/6 PDZ construct (MBP fusion) | automated holdup | peptide, crude extract | concentration not given, corrected by standard peak, unit not given | reference: biotin control resin, higher = stronger binding | binding intensity | 0.58
ALLTWVTQV | Jurkat T cells expressing 1G4 TCR | NFAT-eGFP reporter, flow cytometry | peptide | concentration not given, HLA-A*02:01 NY-ESO system |  | reporter activation | 69%
